# Assay results collected from several papers.
# Each line is one published result; not all experiments were run side by side.
# RPS6KA1: Ribosomal protein S6 kinase alpha-1 (RPS6KA1, Homo sapiens, UniProt Q15418)
# Sequence of UniProt Q15418 (whole entry, looked up): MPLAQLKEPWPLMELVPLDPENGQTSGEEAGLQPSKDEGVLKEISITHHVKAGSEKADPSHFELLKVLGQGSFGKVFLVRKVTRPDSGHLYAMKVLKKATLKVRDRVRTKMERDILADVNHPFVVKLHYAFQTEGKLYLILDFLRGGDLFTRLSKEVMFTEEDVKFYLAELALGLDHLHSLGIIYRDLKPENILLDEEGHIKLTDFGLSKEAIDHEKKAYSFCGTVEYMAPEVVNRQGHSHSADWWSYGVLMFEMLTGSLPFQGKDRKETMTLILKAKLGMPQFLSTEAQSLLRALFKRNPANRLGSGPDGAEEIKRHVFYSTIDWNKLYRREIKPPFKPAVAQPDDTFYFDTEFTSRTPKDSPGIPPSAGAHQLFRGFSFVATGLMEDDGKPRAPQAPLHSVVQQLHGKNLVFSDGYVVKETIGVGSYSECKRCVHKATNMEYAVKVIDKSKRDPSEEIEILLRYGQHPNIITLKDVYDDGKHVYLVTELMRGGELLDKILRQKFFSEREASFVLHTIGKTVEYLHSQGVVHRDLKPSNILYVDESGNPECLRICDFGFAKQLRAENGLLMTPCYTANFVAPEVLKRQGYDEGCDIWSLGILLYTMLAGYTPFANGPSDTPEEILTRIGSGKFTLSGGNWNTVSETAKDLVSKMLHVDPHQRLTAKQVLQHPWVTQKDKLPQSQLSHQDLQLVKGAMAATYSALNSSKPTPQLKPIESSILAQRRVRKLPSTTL
Structure (SMILES),target,assay,test system,setting,scale,measurement,value
Nc1nc(Nc2ccccc2)sc1C(=O)c1ccccc1,RPS6KA1,"enzyme activity, inhibitor",,10 µM,,remaining activity,24%
Cc1cccc(O[C@H]2CCC[C@@H](C(C)CNCc3ccncc3)C2)c1 (relative stereo),RPS6KA1,"enzyme activity, inhibitor",,10 µM,,inhibition,-3%
O=C=[N][Ru-4]123([n]4c5ccc(O)cc5c5c6c(c7cc(F)c[n+]1c7c54)C(=O)NC6=O)[S+]1CC[S+]2CC[S+]3CC1 (centres unmarked),RPS6KA1,enzyme activity,,"100 nM, human enzyme, added: 10 µM ATP",relative to: untreated,remaining activity,26%
Cc1ccc(C)c(-c2ccc3nc(NC(=O)C4CCCCC4)nn3c2)c1,RPS6KA1,"enzyme activity, Dundee kinase panel",,10 µM,,remaining activity,68%
COc1cc(-n2cc3cc(F)cc(C(N)=O)c3n2)cc(Cl)c1C1CC(O)(CCO)Cc2ccccc21 (centres unmarked),RPS6KA1,"enzyme activity, inhibitor",,10 µM,,inhibition,0.11%
C=CC(=O)Nc1cccc(-c2cnc3[nH]cc(C(=O)NC(C)(C)C)c3n2)c1,RPS6KA1,"enzyme activity, inhibitor",,0.1 µM,,inhibition,9%
C=CC(=O)Nc1cc(-c2nn(C3CCN(CCNC(=O)[C@H](C)CCC45CC6CC(CC(C6)C4)C5)CC3)c3ncnc(N)c23)ccc1Oc1ccccc1,"Ribosomal protein S6 kinase alpha-1, kinase domain 1 (RPS6KA1, Homo sapiens, UniProt Q15418)","inhibitor, KiNativ profiling",biochemical,2 µM,,inhibition,24.3%
CN1CCN(Cc2ccc(-c3ccc(CO[C@H]4CCC[C@@H]4NC(=O)c4cc(-c5cnn(C)c5)cnc4N)cc3)cc2)CC1,RPS6KA1,"enzyme activity, inhibitor",,0.1 µM,,inhibition,4%
Fc1cncc(-c2ccc3[nH]c4ncnc(N[C@H]5CC[C@H](N6CCOCC6)CC5)c4c3c2)c1,RPS6KA1,"enzyme activity, inhibitor, radiometric",,1 µM,,inhibition,83%
COc1ccc(C(=O)/C=C/c2ccccc2-c2c[nH]c3ccc(C#N)cc23)c(O)c1,RPS6KA1,"enzyme activity, inhibitor",,20 µM,,inhibition,25%
Cc1cccc(-c2ccc3nc(NC(=O)C4CCCCC4)nn3c2)c1,RPS6KA1,"enzyme activity, Dundee kinase panel",,10 µM,,remaining activity,67%
COc1c(OCCCN2CCOCC2)ccc2c1N=C(NC(=O)c1cnc(N)nc1)N1CCN=C21,RPS6KA1,"kinase activity, inhibitor",,1 µM,relative to: untreated control,remaining activity,70%
O=C(O)CCC(=O)c1cccc(NS(=O)(=O)c2c[nH]c3ncccc23)c1,RPS6KA1,"kinase activity, radiometric",,10 µM,,remaining activity,110%
CCn1cc(C(=O)O)c(=O)c2c(N)c(F)c(NC3CCCCC3)cc21,RPS6KA1,kinase activity,,"0.1 µM, added: ATP at Km",,inhibition,3.9%
O=c1c(-c2ccc(Cl)c(CN3CCOCC3)c2)coc2cc(O)ccc12,RPS6KA1,"enzyme activity, inhibitor",,1 µM,,remaining activity,121%
CS(=O)(=O)Nc1cccc(-c2csc3cnc(Nc4ccc(N5CCN(CCCCCOc6cccc7c6C(=O)N(C6CCC(=O)NC6=O)C7=O)CC5)cc4)nc23)c1 (centres unmarked),"Ribosomal protein S6 kinase alpha-1, kinase domain 2 (RPS6KA1, Homo sapiens, UniProt Q15418)","probe labelling, inhibitor, KiNativ chemoproteomics",MOLT-4,1 µM,,inhibition,-16.2%
NC(=O)C[C@H]1CCc2sc3ncnc(O[C@H]4CC[C@H](N5CCOCC5)CC4)c3c21,RPS6KA1,"enzyme activity, inhibitor",,10 µM,,inhibition,23%

# A few entries again:
Structure (SMILES),target,assay,test system,setting,scale,measurement,value
COc1ccc(C(=O)/C=C/c2ccccc2-c2c[nH]c3ccc(C#N)cc23)c(O)c1,RPS6KA1,"enzyme activity, inhibitor",,20 µM,,inhibition,25%
CN1CCN(Cc2ccc(-c3ccc(CO[C@H]4CCC[C@@H]4NC(=O)c4cc(-c5cnn(C)c5)cnc4N)cc3)cc2)CC1,RPS6KA1,"enzyme activity, inhibitor",,0.1 µM,,inhibition,4%
CCn1cc(C(=O)O)c(=O)c2c(N)c(F)c(NC3CCCCC3)cc21,RPS6KA1,kinase activity,,"0.1 µM, added: ATP at Km",,inhibition,3.9%
